{"data": "Measured values from different studies", "note": "Each line is one published result; not all experiments were run side by side. Values joined by “and” are separate records of one study, mostly repeats; a detail may differ. ± gives the spread as reported."}
{"SMILES": "CC(=O)NCSC[C@H](NC(=O)[C@@H]1CCCN1C(=O)[C@H](C)NC(=O)[C@@H](NC(=O)CNC(=O)[C@@H](NC(=O)[C@H](Cc1c[nH]c2ccccc12)NC(=O)[C@H](C)NC(=O)CNC(=O)[C@H](CO)NC(=O)[C@H](C)NC(=O)[C@@H]1CCCN1C(=O)[C@H](Cc1c[nH]c2ccccc12)NC(=O)[C@H](C)NC(=O)[C@H](C)NC(=O)[C@@H](N)Cc1ccc(O)cc1)[C@@H](C)O)[C@@H](C)O)C(=O)N[C@@H](CO)C(=O)N[C@@H](C)C(=O)NCC(=O)N[C@H](C(=O)NCCOCCOCCOCCOCCOCCOCCOCCOCCOCCOCCOCCOCCC(=O)N[C@@H](CS)C(N)=O)[C@@H](C)O", "target or system": "H1666 lung adenocarcinoma", "assay": "cell binding, phage binding, refers to: output/input phage", "conditions": "10 min, 37 °C", "scale": "baseline: control phage", "quantity": "selectivity ratio", "result": "0.86 ± 0.15"}
{"SMILES": "COc1ccccc1-c1n[nH]c2nc(N[C@H]3CC[C@H](NS(=O)(=O)CC(C)C)CC3)ncc12", "assay": "bead binding, competition bead pull-down, refers to: LINJ.36.6530", "system": "Leishmania donovani extract", "conditions": "10 µM", "scale": "baseline: vehicle", "quantity": "relative abundance", "result": 0.77}
{"SMILES": "CC(C)(C)C(=O)OCOP(=O)(OCOC(=O)C(C)(C)C)C1CCCN(O)C1=O (stereo not drawn)", "target or system": "SK-OV-3", "quantity": "GI50", "result": "0.508 µM"}
{"SMILES": "CS(C)(=O)=Nc1ccc(-c2ccc(-c3nc4cc(O[C@@H]5CO[C@H]6[C@@H]5OC[C@H]6O)[nH]c4cc3F)cc2)cc1", "target or system": "NOS3 (Homo sapiens, UniProt P29474)", "assay": "enzyme activity", "conditions": "10 µM", "scale": "baseline: control", "quantity": "inhibition", "result": "-14%"}
{"SMILES": "O=C(C[Se]C(=O)C12CC3CC(CC(C3)C1)C2)Nc1cccc(C(F)(F)F)c1", "target or system": "NCI60 ovarian subpanel", "assay": "cytotoxicity, inhibitor", "conditions": "five-dose", "quantity": "CC50", "result": "41.9 µM"}
{"SMILES": "CN(C)[C@H]1C[C@@]23CC[C@@]4(O2)C(=CC[C@]2(C)[C@@H](c5ccc6ccncc6c5)CC[C@H]24)C=C3[C@@H](O)[C@@H]1O", "target or system": "CLK3 (Homo sapiens, UniProt P49761)", "assay": "ATP probe labelling, inhibitor, KiNativ profiling", "conditions": "1 µM", "quantity": "inhibition", "result": "13.1%"}
{"SMILES": "COc1ccccc1-c1n[nH]c2nc(NC3CCN(C(=O)Cc4ccc(F)cc4F)CC3)ncc12", "assay": "bead binding, competition bead pull-down, refers to: LINJ.25.2520", "system": "Leishmania donovani extract", "conditions": "10 µM", "scale": "baseline: vehicle", "quantity": "relative abundance", "result": 0.99}
{"SMILES": "O=C1NC2(CC2)COc2ncc(F)cc2[C@H]2COCCN2c2ccn3ncc1c3n2", "system": "Sprague-Dawley rat, female, plasma", "conditions": "oral, 10 mg/kg/day, end of recovery, 4-week repeated-dose toxicity", "quantity": "prothrombin time", "result": "8.2 ± 0.4 s"}
{"SMILES": "COc1ccccc1-c1ccncc1C(=O)Nc1nnc(OCc2ccc(Cl)cc2)s1", "target or system": "HCT116 BRCA2-/-", "conditions": "2 µM, average of 3 runs", "scale": "baseline: untreated", "quantity": "colony survival", "result": "40.4%"}
{"SMILES": "O=C(C[Se]C(=O)c1cccs1)Nc1cccc(C(F)(F)F)c1", "target or system": "NCI60 breast subpanel mean", "assay": "cell growth", "quantity": "TGI", "result": "4.11 µM"}
{"SMILES": "CSCC[C@H](NC(=O)[C@@H](NC(=O)[C@H](CCC(N)=O)NC(=O)[C@H](CO)NC(=O)[C@@H](N)C(C)C)[C@@H](C)O)C(=O)N[C@@H](CCCNC(=N)N)C(=O)N[C@@H](CCC(N)=O)C(=O)N[C@H](C(=O)N[C@@H](C)C(=O)N[C@H](C(=O)N1CCC[C@H]1C(=O)N[C@@H](CC(C)C)C(=O)N[C@@H](CC(C)C)C(=O)N[C@@H](Cc1c[nH]c2ccccc12)C(=O)N[C@@H](Cc1ccccc1)C(=O)N[C@@H](Cc1c[nH]c2ccccc12)C(=O)N[C@H](C(=O)NCC(=O)N[C@@H](CO)C(=O)N[C@@H](CC(C)C)C(=O)NCCOCCOCCOCCOCCOCCOCCOCCOCCOCCOCCOCCOCCC(=O)N[C@@H](CS)C(N)=O)[C@@H](C)O)C(C)C)[C@@H](C)O", "target or system": "H2087", "assay": "phage binding", "conditions": "10 min, 37 °C", "scale": "baseline: control phage", "quantity": "selectivity ratio", "result": "39 ± 13"}
{"SMILES": "O=C(O)c1ccc(-c2nc(-c3ccccc3Cl)c3sccn23)cc1", "target or system": "K562", "assay": "megakaryocyte differentiation, flow cytometry", "conditions": "0.1 mM, 72 h", "quantity": "CD61-positive cells", "result": "8.6% and 11.8%"}
{"SMILES": "O=C(C[Se]C(=O)c1cc2ccccc2[nH]1)Nc1cccc(C(F)(F)F)c1", "target or system": "NCI60 NSCLC subpanel", "assay": "NCI60 five-dose screen", "quantity": "CC50", "result": "5.46 µM"}
{"SMILES": "CC(C)[C@H](NC(=O)[C@H](CCCNC(=N)N)NC(=O)[C@@H]1CCCN1C(=O)[C@@H](NC(=O)[C@H](C)NC(=O)[C@H](Cc1ccc(O)cc1)NC(=O)[C@H](CCC(N)=O)NC(=O)[C@H](CCCCN)NC(=O)[C@H](CCCNC(=N)N)NC(=O)[C@@H]1CCCN1C(=O)[C@H](CCC(=O)O)NC(=O)[C@@H](NC(=O)[C@H](C)N)[C@@H](C)O)[C@@H](C)O)C(=O)N[C@@H](Cc1ccccc1)C(=O)N[C@@H](Cc1c[nH]c2ccccc12)C(=O)N[C@H](C(=O)N[C@@H](CC(=O)O)C(=O)N[C@@H](C)C(=O)N1CCC[C@H]1C(=O)NCC(=O)NCCOCCOCCOCCOCCOCCOCCOCCOCCOCCOCCOCCOCCC(=O)N[C@@H](CS)C(N)=O)[C@@H](C)O", "target or system": "H1155 lung large cell carcinoma", "assay": "cell binding, phage binding, refers to: output/input phage", "conditions": "10 min, 37 °C", "scale": "baseline: control phage", "quantity": "selectivity ratio", "result": "0.56 ± 0.19"}
{"SMILES": "Cc1cc(Oc2nc(N3CC[C@@H](c4ccncc4)C3)ncc2F)[nH]n1", "target or system": "muscle cancer cell lines", "assay": "cell proliferation", "conditions": "average over lines", "quantity": "IC50", "result": "49 µM"}
{"note": "Excerpt of the above:"}
{"SMILES": "O=C1NC2(CC2)COc2ncc(F)cc2[C@H]2COCCN2c2ccn3ncc1c3n2", "system": "Sprague-Dawley rat, female, plasma", "conditions": "oral, 10 mg/kg/day, end of recovery, 4-week repeated-dose toxicity", "quantity": "prothrombin time", "result": "8.2 ± 0.4 s"}
{"SMILES": "O=C(O)c1ccc(-c2nc(-c3ccccc3Cl)c3sccn23)cc1", "target or system": "K562", "assay": "megakaryocyte differentiation, flow cytometry", "conditions": "0.1 mM, 72 h", "quantity": "CD61-positive cells", "result": "8.6% and 11.8%"}
